Experimental data of several laboratories.
Lines come from different studies, so protocols differ. Values joined by “and” are separate records of one study, mostly repeats; a detail may differ. ± gives the spread as reported.
Organism: SARS-CoV-2

SMILES | test | system | setting | how to read | measurement | result
Cc1oc2nc1C(=O)N[C@](C)(C(=O)NCCc1ccccc1)c1nc(c(C)o1)C(=O)N[C@](C)(C(=O)NCCc1ccccc1)c1nc(c(C)o1)C(=O)N[C@]2(C)C(=O)NCCc1ccccc1 | viral replication | Vero E6, NRC-03-nhCoV | 10 µM | – | inhibition | 19%
CC(C)C(=O)OC[C@H]1O[C@@](C#N)(n2ccc(N)nc2=O)[C@H](O)[C@@H]1O | viral replication, qRT-PCR of viral RNA | Calu-3, Washington | – | – | EC90 | 8.3 ± 1.7 µM
Cc1oc2nc1C(=O)N[C@](C)(C(=O)OC(C)C)c1nc(c(C)o1)C(=O)N[C@](C)(C(=O)OC(C)C)c1nc(c(C)o1)C(=O)N[C@]2(C)C(=O)OC(C)C | viral replication | Vero E6, NRC-03-nhCoV | 20 µM | – | inhibition | 53%
C=Cc1c(C)c2cc3nc(cc4[nH]c(cc5nc(cc1[nH]2)C(C)=C5CCC(=O)O)c(CCC(=O)OC)c4C)[C@@]1(C)C3=CC=C(C(=O)OC)[C@H]1C(=O)OC | cytopathic effect | Vero E6 | up to 30.0 µM | – | antiviral activity | inactive
CCCC/C=C/C(=O)N[C@@H](Cc1csc2ccccc12)C(=O)N[C@H]1COC(=O)[C@@H]2C[C@@H](C)CN2C(=O)[C@H](C)NC(=O)[C@@H]2CCCCN2C(=O)[C@@H]2CCCN2C1=O | – | Huh-7 CLPP knock-out 1 | concentration not given, 6 h, unit not given | baseline: DMSO | RNA release | 0.524 and 0.578 and 0.417
COc1ccc(CCCCCCCCC(=O)c2c(OC)cccc2OC)cc1OC | – | Vero E6/TMPRSS2, WK-521 ancestral | – | baseline: CC50 over EC50 | selectivity index | 4.6
O=P(O)(O)Oc1c2c(c(OP(=O)(O)O)c3c1C1CC3c3cc4c(cc31)C1CC4c3ccccc31)C1CC2c2cc3c(cc21)C1CC3c2ccccc21 | spike pseudovirus entry | – | – | – | time to maximum inhibition | 5 h
O=C1C(O)=C(Nc2ccccc2Cl)C(=O)c2ccccc21 | – | Calu-3 and HepG2 | – | baseline: HepG2 CC50 over antiviral EC50 | selectivity index | 80 ± 10
C[C@@H]1O[C@@H](n2c3ccccc3c3c4c(c5c6ccccc6[nH]c5c32)CNC4=O)C[C@@H](N)[C@H]1O | viral replication, dsRNA staining | Calu-3, Delta B.1.617.2 | – | – | EC50 | 1 µM
C=CCCOP(=O)(O)Oc1c2c(c(OP(=O)(O)OCCC=C)c3c1C1CC3c3cc4c(cc31)C1CC4c3ccccc31)C1CC2c2cc3c(cc21)C1CC3c2ccccc21 | spike pseudoparticle entry | Caco-2 | – | – | IC50 | 8.8 µM
CC(C)(C)NC(=O)[C@@H](c1cccnc1)N(C(=O)c1ccco1)c1ccc(C(C)(C)C)cc1 | – | Vero C1008 | 10 µM | baseline: positive control | viral titre log reduction | 0.266 log10
Cc1ccc(N2CC3CC(C2)N3)cc1C(=O)NC1(c2ccc3c4c(cccc24)C(=O)N3C)CC1 | viral replication | Vero C1008, Omicron BA.5 | 0.01715 µM | – | inhibition | 0%
CCC1OC(C2(C)CC(C)C(O)(C3(C)CCC(C(O)C4(O)OC(CC5(O)OC(C(C)C(O)CC6CCC(C)C(C(C)C(=O)O)O6)CCC5C)C(C)CC4C)O3)O2)CCC1(C)O (stereo not shown) | – | Vero E6-hTMPRSS2 | – | baseline: CC50 over EC50 | selectivity index | > 500 fold and 586 fold
O=C1C=CC(=O)C=C1 | – | Huh-7 | – | baseline: CC50 over EC50 | selectivity index | inactive
O=C(Oc1ccc(CCCCCCCCC(=O)c2c(OC(=O)c3ccccc3)cccc2OC(=O)c2ccccc2)cc1OC(=O)c1ccccc1)c1ccccc1 | – | Vero E6/TMPRSS2, WK-521 ancestral | – | baseline: CC50 over EC50 | selectivity index | > 2.8
Cc1oc2nc1C(=O)N[C@](C)(C(=O)O)c1nc(c(C)o1)C(=O)N[C@](C)(C(=O)O)c1nc(c(C)o1)C(=O)N[C@]2(C)C(=O)O | virucidal activity | Vero E6, NRC-03-nhCoV | 5 µM | – | inhibition | 12%
CCn1ccc(-c2cc(-c3cnn(C)c3)cc([C@@H](C)NC(=O)c3cc(OCCN(C)C)ccc3C)c2)n1 | viral replication | icSARS-CoV-2-nLuc reporter | – | – | EC90 | 1.59 µM
CC(C)CC(C(=O)N1CC2(CC1C#N)C(=O)Nc1ccccc12)N(C)C(=O)c1cc2c(F)cc(F)c(F)c2[nH]1 (stereo not shown) | viral replication | Vero E6 | 1 µM | – | inhibition | 95.8% and 96.4% and 100% and 97.3%
Cc1ccc(N2CCN(C)CC2)cc1C(=O)NC1(c2ccc3c4c(cccc24)CC3)CC1 | viral replication | Vero C1008, wild type | 0.01715 µM | – | inhibition | 0%
CC[C@](COC(=O)c1cc(OC)c(OC)c(OC)c1)(c1ccccc1)N(C)C | – | Vero | 83 µM | – | plaque reduction | 77.3%
COC(=O)CCC(C)C1CCC2C3C(O)CC4CC(OC(=O)CCC(=O)OC5OC6OC7(C)CCC8C(C)CCC(C5C)C68OO7)CCC4(C)C3CCC12C (stereo not shown) | – | Vero C1008 | concentration not given | baseline: untreated | viral load reduction | < 1 log10
Cc1ccc(N2CC(N3CCC(C)(O)CC3)C2)cc1C(=O)NC1(c2ccc3c4c(cccc24)C(=O)N3C)CC1 | viral replication | Vero C1008, Omicron BA.5 | 0.05144 µM | – | inhibition | 5%

Excerpt of the above:
SMILES | test | system | setting | how to read | measurement | result
Cc1ccc(N2CCN(C)CC2)cc1C(=O)NC1(c2ccc3c4c(cccc24)CC3)CC1 | viral replication | Vero C1008, wild type | 0.01715 µM | – | inhibition | 0%
Cc1oc2nc1C(=O)N[C@](C)(C(=O)OC(C)C)c1nc(c(C)o1)C(=O)N[C@](C)(C(=O)OC(C)C)c1nc(c(C)o1)C(=O)N[C@]2(C)C(=O)OC(C)C | viral replication | Vero E6, NRC-03-nhCoV | 20 µM | – | inhibition | 53%
